# Measured values pooled from the literature.
# Lines come from different studies, so protocols differ. ± gives the spread as reported.
# Genome polyprotein NS3 helicase domain: Genome polyprotein, NS3 helicase domain (Hepatitis C virus genotype 1b, UniProt Q9WMX2)
# DRD3: D(3) dopamine receptor (DRD3, Homo sapiens, UniProt P35462)
# Sequence of UniProt P35462 (whole entry, looked up): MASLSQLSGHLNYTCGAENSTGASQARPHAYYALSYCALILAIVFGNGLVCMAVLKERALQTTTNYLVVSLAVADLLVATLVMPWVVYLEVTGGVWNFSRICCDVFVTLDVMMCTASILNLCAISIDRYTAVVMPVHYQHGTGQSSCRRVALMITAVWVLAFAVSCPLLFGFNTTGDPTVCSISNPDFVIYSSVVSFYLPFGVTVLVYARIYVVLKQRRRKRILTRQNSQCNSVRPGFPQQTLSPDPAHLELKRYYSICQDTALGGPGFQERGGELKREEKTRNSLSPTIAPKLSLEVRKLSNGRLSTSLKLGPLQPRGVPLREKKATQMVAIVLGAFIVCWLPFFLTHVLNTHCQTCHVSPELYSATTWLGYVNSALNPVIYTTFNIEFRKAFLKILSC
# Glutamate receptor 2: Glutamate receptor 2 (Homo sapiens, UniProt P42262)
# Sequence of UniProt P42262 (whole entry, looked up): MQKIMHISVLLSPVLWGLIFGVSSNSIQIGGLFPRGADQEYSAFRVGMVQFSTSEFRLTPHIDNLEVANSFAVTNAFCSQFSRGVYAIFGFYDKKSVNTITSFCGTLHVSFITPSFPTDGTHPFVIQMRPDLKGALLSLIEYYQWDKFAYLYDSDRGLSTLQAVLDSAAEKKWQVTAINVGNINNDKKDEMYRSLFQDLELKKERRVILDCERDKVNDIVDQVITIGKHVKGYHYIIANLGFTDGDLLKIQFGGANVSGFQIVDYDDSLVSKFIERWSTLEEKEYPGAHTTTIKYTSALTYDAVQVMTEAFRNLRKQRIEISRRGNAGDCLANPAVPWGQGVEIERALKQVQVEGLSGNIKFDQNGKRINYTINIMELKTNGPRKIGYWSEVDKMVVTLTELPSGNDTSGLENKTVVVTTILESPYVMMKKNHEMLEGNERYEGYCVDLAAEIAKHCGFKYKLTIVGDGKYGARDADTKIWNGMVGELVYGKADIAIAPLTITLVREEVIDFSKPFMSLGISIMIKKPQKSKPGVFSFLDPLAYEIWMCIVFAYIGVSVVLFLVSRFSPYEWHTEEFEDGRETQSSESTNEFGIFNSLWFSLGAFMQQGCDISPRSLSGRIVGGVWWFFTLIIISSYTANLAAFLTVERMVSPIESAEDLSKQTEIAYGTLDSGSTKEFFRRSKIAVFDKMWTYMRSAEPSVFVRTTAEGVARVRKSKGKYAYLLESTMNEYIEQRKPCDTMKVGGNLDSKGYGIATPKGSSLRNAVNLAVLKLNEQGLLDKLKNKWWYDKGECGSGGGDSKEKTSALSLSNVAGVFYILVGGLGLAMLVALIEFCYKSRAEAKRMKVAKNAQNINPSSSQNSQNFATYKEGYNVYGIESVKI
# Sequence of UniProt P49286 (whole entry, looked up): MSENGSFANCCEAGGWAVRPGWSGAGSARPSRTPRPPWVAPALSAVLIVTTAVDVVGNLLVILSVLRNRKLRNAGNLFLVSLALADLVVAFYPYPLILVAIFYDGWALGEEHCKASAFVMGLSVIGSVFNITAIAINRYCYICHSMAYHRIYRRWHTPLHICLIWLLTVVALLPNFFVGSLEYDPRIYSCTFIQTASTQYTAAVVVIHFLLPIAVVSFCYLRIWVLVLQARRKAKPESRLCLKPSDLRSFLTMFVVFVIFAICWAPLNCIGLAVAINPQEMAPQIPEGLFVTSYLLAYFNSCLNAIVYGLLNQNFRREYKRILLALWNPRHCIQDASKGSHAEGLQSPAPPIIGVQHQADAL
# Sequence of UniProt P20035 (whole entry, looked up): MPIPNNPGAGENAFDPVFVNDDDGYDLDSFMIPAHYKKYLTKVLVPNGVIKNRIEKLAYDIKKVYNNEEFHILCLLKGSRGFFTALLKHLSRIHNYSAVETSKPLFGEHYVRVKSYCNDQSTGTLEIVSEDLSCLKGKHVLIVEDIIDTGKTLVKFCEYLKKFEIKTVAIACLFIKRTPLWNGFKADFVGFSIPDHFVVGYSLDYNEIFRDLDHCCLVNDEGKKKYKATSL
Compound,target,assay,test system,conditions,inhibition
Cc1ccc2nc(CN(CCN(Cc3nc4ccc(C)cc4[nH]3)Cc3nc4ccc(C)cc4[nH]3)Cc3nc4ccc(C)cc4[nH]3)[nH]c2c1,Genome polyprotein NS3 helicase domain,"DNA binding, inhibitor",hepatitis C virus,"100 µM, added: Cy5-dT15 DNA",0%
Cn1cc(-n2cnc3c(NCc4nc5cc(Cl)c(Cl)cc5[nH]4)nc(N4CCOCC4)nc32)cn1,"Cyclin-dependent kinase 12, with cyclin K (CDK12, Homo sapiens, UniProt Q9NYV4)","kinase activity, inhibitor, ADP-Glo",,0.0003 µM,11.5%
NCCCCN=C(N)N,Genome polyprotein NS3 helicase domain,"DNA binding, inhibitor",hepatitis C virus,"100 µM, added: Cy5-dT15 DNA",1%
CC[C@@H]1[C@H](F)C(=O)N[C@@H]1COc1nccc2cc(C(N)=O)c(OC)cc12,"TAOK2 (Homo sapiens, UniProt Q9UL54)","ATP probe binding, KiNativ profiling, refers to: Lys2 probe site",THP-1 cell lysate,0.01 mM,17.1%
Clc1cncc(OC[C@H]2CN(CCN3CCc4ccccc43)CCO2)c1,DRD3,radioligand binding,,"concentration not given, added: [3H]N-methylspiperone",1.3%
Oc1cccc(Nc2nc(-c3ccc(F)cc3F)cs2)c1,"MTNR1B (Homo sapiens, UniProt P49286)",,,10 µM,15.9%
O=C1CN(C[C@@H](CO)NCc2c[nH]c3c(O)nc(O)nc23)S(=O)(=O)N1,"Hypoxanthine-guanine-xanthine phosphoribosyltransferase (Plasmodium falciparum, UniProt P20035)","enzyme activity, inhibitor, coupled IMPDH",,up to 100 µM,inactive
CCCN1C[C@H](CSC)C[C@@H]2c3cccc4[nH]cc(c34)C[C@H]21,Glutamate receptor 2,"ion current, negative allosteric modulator, SyncroPatch patch clamp",HEK293,3 µM,11%
CN(C(=O)n1cnc(-c2ccc[n+]([O-])c2)c1)C1CCCCC1,"LTB4R (Homo sapiens, UniProt Q15722)",,,10 µM,-2.66%
O=C(COc1ccc(Cl)cc1Cl)N/N=C/c1c[nH]c2ccccc12,"dxs (Deinococcus radiodurans, UniProt Q9RUB5)","enzyme activity, inhibitor",,120 µM,30.1%
Clc1cccc(OC[C@@H]2CN(CCN3CCc4ccccc43)CCO2)c1,DRD3,radioligand binding,,"concentration not given, added: [3H]N-methylspiperone",52%
CCC1(C)CC(=O)NC1=O (stereo not shown),Genome polyprotein NS3 helicase domain,"DNA binding, inhibitor",hepatitis C virus,"100 µM, added: Cy5-dT15 DNA",0%
Cc1cc(-c2ccnc3[nH]cc(F)c23)cc(F)c1[C@@]1(O)[C@H](C)CN(C2CCS(=O)(=O)CC2)C[C@@H]1C,CDK11 and CDK8,"ATP probe binding, KiNativ, refers to: Lys2 site",HEK293T cell lysate,1 µM,46.7%
NCCCCCC(=O)O,Genome polyprotein NS3 helicase domain,"DNA binding, inhibitor",hepatitis C virus,"100 µM, added: Cy5-dT15 DNA",1%
CNC(=O)c1cc2c(Oc3ccc(NC(=O)C4(C(=O)Nc5ccc(F)cc5)CC4)cc3)ccnc2cc1OC,"Vascular endothelial growth factor receptor 2 (Mus musculus, UniProt P35918)",VEGFR2 phosphorylation,"mouse, Hs746T xenograft, lung","100 mg/kg single dose, 4 h, added: human VEGF",100%
COC(=O)C1=C(C)NC(C)=C(C(=O)OCCN(C)Cc2ccccc2)C1c1cccc([N+](=O)[O-])c1 (stereo not shown),Genome polyprotein NS3 helicase domain,"DNA binding, inhibitor",hepatitis C virus,"100 µM, added: Cy5-dT15 DNA",3%
CC(C)NCC(O)COc1cccc2ccccc12 (stereo not shown),Glutamate receptor 2,"ion current, negative allosteric modulator, SyncroPatch patch clamp",HEK293,3 µM,2%
O=c1c2ccccc2[nH]c(=S)n1CCN1CCC(=C(c2ccc(F)cc2)c2ccc(F)cc2)CC1,Genome polyprotein NS3 helicase domain,"DNA binding, inhibitor",hepatitis C virus,"100 µM, added: Cy5-dT15 DNA",1%
COc1cccc(C2NCCc3cc(O)c(O)cc32)c1O (stereo not shown),tyrosinase,"enzyme activity, inhibitor",,"100 µM, added: levodopa",35.4 ± 0.72%

# A few entries again:
Compound,target,assay,test system,conditions,inhibition
Cc1cc(-c2ccnc3[nH]cc(F)c23)cc(F)c1[C@@]1(O)[C@H](C)CN(C2CCS(=O)(=O)CC2)C[C@@H]1C,CDK11 and CDK8,"ATP probe binding, KiNativ, refers to: Lys2 site",HEK293T cell lysate,1 µM,46.7%
O=c1c2ccccc2[nH]c(=S)n1CCN1CCC(=C(c2ccc(F)cc2)c2ccc(F)cc2)CC1,Genome polyprotein NS3 helicase domain,"DNA binding, inhibitor",hepatitis C virus,"100 µM, added: Cy5-dT15 DNA",1%
O=C1CN(C[C@@H](CO)NCc2c[nH]c3c(O)nc(O)nc23)S(=O)(=O)N1,"Hypoxanthine-guanine-xanthine phosphoribosyltransferase (Plasmodium falciparum, UniProt P20035)","enzyme activity, inhibitor, coupled IMPDH",,up to 100 µM,inactive
